Measured values gathered from unrelated publications.
Lines come from different studies, so protocols differ. Values joined by “and” are separate records of one study, mostly repeats; a detail may differ.

SMILES | test | system | conditions | scale | endpoint | value
NC(=O)c1nc(F)c[nH]c1=O | – | bovine cells | – | – | CC50 | 310 µM
CC(C)(C)[C@H](NC(=O)C(F)(F)F)C(=O)N1C[C@H]2[C@@H]([C@H]1C(=O)N[C@H](C#N)C[C@@H]1CCNC1=O)C2(C)C | – | rat hepatocytes | scaled to liver | – | intrinsic clearance | 26.5 mL/min/kg
C#Cc1ccc2c(c1)C(c1ccccn1)=NCc1c(-c3cnco3)ncn1-2.Cl | shake flask | 50 mM phosphate buffer | 24 h, pH 8, 25 °C | – | solubility | 749 µg/mL
O=C1c2c(O)c(=O)ccn2N([C@@H]2c3ccccc3SCc3c2ccc(F)c3F)[C@@H]2COCCN12 | – | BALB/c mouse, plasma | oral, 50 mg/kg baloxavir marboxil every 12 h, 24 h | – | plasma concentration | 14.3 ng/mL
O=C(O)CCC(CP(=O)(O)O)C(=O)O (stereo not drawn) | – | Wistar rat, male, plasma | ip, 100 mg/kg | – | AUC(0-last) | 207 µg·h/mL
COc1cc2c(Oc3ccc4[nH]c(C)cc4c3F)ccnc2cc1OCC1(N)CC1 | – | paediatric recurrent refractory sarcoma | 12 mg | – | grade 3 influenza-like symptoms | 0%
O=C1c2c(O)c(=O)ccn2N([C@@H]2c3ccccc3SCc3c2ccc(F)c3F)[C@@H]2COCCN12 | – | bovine cells | – | – | CC50 | 5.7 µM
CCN(CC)C(=O)[C@@H]1C=C2c3cccc4[nH]cc(c34)C[C@H]2N(C)C1 | refers to: intermittent shortness of breath | healthy volunteers | dose not given, 0 to 12 h | reference: placebo, direction not given | List of Complaints score | 0
COc1ccc2c(c1)[C@]13CCCC[C@@H]1[C@H](C2)N(C)CC3 | – | C57BL/6 mice, plasma | oral, 50 µg/g, 60 min | – | plasma concentration | 189 ng/mL and 611 ng/mL and 175 ng/mL and 444 ng/mL and 221 ng/mL

For quick reference, copied from above:
SMILES | test | system | conditions | scale | endpoint | value
COc1cc2c(Oc3ccc4[nH]c(C)cc4c3F)ccnc2cc1OCC1(N)CC1 | – | paediatric recurrent refractory sarcoma | 12 mg | – | grade 3 influenza-like symptoms | 0%
